Measurements of several laboratories.
± gives the spread as reported.

CC[C@H](C)[C@H](NC(=O)[C@H](Cc1ccccc1)NC(=O)[C@H](CCC(=O)O)NC(=O)[C@H](CCCNC(=N)N)NC(=O)[C@H](C)NC(=O)[C@H](C)NC(=O)[C@H](CCC(N)=O)NC(=O)[C@H](CCC(=O)O)NC(=O)[C@H](CCC(=O)O)NC(=O)[C@H](CC(C)C)NC(=O)[C@H](Cc1ccc(O)cc1)NC(=O)[C@H](CO)NC(=O)[C@H](CO)NC(=O)[C@@H](NC(=O)[C@H](CC(=O)O)NC(=O)[C@H](CO)NC(=O)[C@@H](NC(=O)[C@H](Cc1ccccc1)NC(=O)[C@@H](NC(=O)CNC(=O)[C@H](CCC(=O)O)NC(=O)[C@H](C)NC(=O)CCc1c[nH]cn1)[C@@H](C)O)[C@@H](C)O)C(C)C)C(=O)N[C@@H](C)C(=O)N[C@@H](Cc1c[nH]c2ccccc12)C(=O)N[C@@H](CC(C)C)C(=O)N[C@H](C(=O)N[C@@H](CCCNC(=N)N)C(=O)NCC(=O)N[C@@H](CCCNC(=N)N)C(=O)N[C@@H](CCCCNC(=O)COCCOCCNC(=O)COCCOCCNC(=O)CC[C@H](NC(=O)CCCCCCCCCCCCCCCCC(=O)O)C(=O)O)C(=O)NCC(=O)NCC(=O)N[C@@H](CO)C(=O)N[C@@H](CCCCNc1c(NCCCCCN(O)C(=O)CCC(=O)NCCCCCN(O)C(=O)CCC(=O)NCCCCCN(O)C(C)=O)c(=O)c1=O)C(=O)O)C(C)C [zirconium-89 labelled]  tissue uptake (ex vivo gamma counting; rat, skin at injection site; subcutaneous, 3 nmol/kg, 24 h): 2.13 %ID/g
C[C@H]1CN(c2n[nH]c3nc(N[C@H]4CC[C@H](NS(=O)(=O)CCC(F)(F)F)CC4)ncc23)CCO1  relative abundance (DDX20 (Homo sapiens, UniProt Q9UHI6); inhibitor, Kinobeads competition profiling; 0.8 µM; reference: vehicle): 1.14
O=C(O)COP(=O)(O)O  Ki ratio (Triosephosphate isomerase (TPI1, Gallus gallus, UniProt P00940, G210A/S211G/Y208T); enzyme activity, competitive inhibitor, GPDH/NADH-coupled; pH 7.5, 25 °C, ionic strength 0.1 NaCl, with: glyceraldehyde 3-phosphate substrate; reference: mutant over wild type): 122
O=C(c1ccc(Cl)cc1)N1CCN2C(=O)N(OC(=O)N3CCOc4ccccc43)C(=O)C2C1 (stereo not drawn)  median protein ratio (LYPLAL1 (Homo sapiens, UniProt Q5VWZ2); MS-based ABPP; SW-620 conditioned medium; 10 µM, 1 h, 37 °C; reference: compound over DMSO, lower = more inhibition): 1.04
[2H]c1c([2H])c([C@]2([2H])CCCN2C(=O)C(C)(C)Oc2ccc3cn[nH]c3c2)c([2H])c([2H])c1C([2H])([2H])[2H]  remaining binding (MAP3K2 (Homo sapiens, UniProt Q9Y2U5); KINOMEscan; 1 µM; reference: DMSO control): 65%
Oc1ccc2c3c1O[C@H]1[C@@H](O)CC[C@@]4(O)[C@@H](C2)N(CC2CCC2)CC[C@]314  log2 fold change (TAAR1 (Homo sapiens, UniProt Q96RJ0); β-arrestin recruitment, TANGO luminescence, item: TA1; concentration not given; reference: basal luminescence): 0.139
OC[C@H]1O[C@@H](n2ccc3c(SCc4ccc(F)cc4F)ncnc32)[C@H](O)[C@@H]1O  survival (Toxoplasma gondii; [3H]uracil incorporation; human fibroblasts, adenosine kinase deficient; 5 µM): 100%
COc1cc(Nc2ncc(F)c(Nc3ccc4c(n3)NC(=O)C(C)(C)O4)n2)cc(OC)c1OC  IC50 (CNR2 (Homo sapiens, UniProt P34972)): > 10 µM
CC(C)[C@@H]1NC(=O)[C@H](Cc2ccccc2)NC(=O)[C@@H]2NC(=O)[C@H](Cc3ccccc3)NC(=O)[C@@H]3CCCN3C(=O)CNC(=O)[C@H](Cc3ccccc3)NC(=O)[C@@H]3CNCCCC[C@@H](C(=O)O)NC(=O)[C@@H]4NC(=O)[C@H](CC(N)=O)NC(=O)CNC(=O)[C@H]([C@@H](O)C(=O)O)NC(=O)[C@H](CSC[C@@H](NC(=O)[C@H](CCC(N)=O)NC(=O)[C@H](CCCCNC(=O)c5ccc(NN)nc5)NC(=O)[C@@H](N)CS[C@H]4C)C(=O)N[C@@H](CS[C@H]2C)C(=O)N3)NC1=O [technetium-99m labelled]  tissue uptake (rat, saline control, stomach; intravenous, 2 h after tracer, tracer 24 h after reperfusion): 0.09 ± 0.03 %ID/g
CC[C@H](C)[C@@H]1NC(=O)[C@@H]2CCCN2C(=O)[C@H](CC(C)C)NC(=O)[C@H](CC(C)C)NC(=O)CNC(=O)[C@@H](NC(=O)[C@@H](NC(=O)[C@H](CC(=O)O)NC(=O)CNC(=O)[C@@H](NC(=O)[C@H](C)NC(=O)CNC(=O)[C@H](CCCCN)NC(=O)[C@H](CC(C)C)NC(=O)[C@H](CC(C)C)NC(=O)[C@H](CCCCN)NC(=O)CNC(=O)[C@@H](NC(=O)[C@@H](N)CC(C)C)C(C)C)C(C)C)C(C)C)CSSC[C@@H](C(=O)O)NC1=O  log2 fold change (RNA-seq, item: Bax mRNA; mouse traumatic brain injury, frontal cortex and hippocampus; dose not given; reference: TBI plus compound vs TBI): 0.884
CN1CC[C@]2(C)c3cc(OC(=O)Nc4ccccc4)ccc3N(C)[C@H]12  inhibition (human nicotinic α2β4 receptor; radioligand binding; 10 µM, with: [3H]epibatidine): 0%
Cc1ccc(CSc2ncnc3c2ccn3[C@@H]2O[C@H](CO)[C@@H](O)[C@H]2O)cc1  survival (Toxoplasma gondii; [3H]uracil incorporation; human fibroblasts, adenosine kinase deficient; 10 µM): 100%
CC[C@H](C)[C@H](NC(=O)CNC(=O)[C@@H](N)CCCCN)C(=O)N[C@@H](CC(C)C)C(=O)N[C@@H](CCCCN)C(=O)N[C@@H](CCCNC(=N)N)C(=O)N[C@@H](CCC(=O)O)C(=O)N[C@@H](CCCCN)C(=O)N[C@@H](CCCNC(=N)N)C(=O)N[C@@H](CC(C)C)C(=O)N[C@@H](CCCNC(=N)N)C(=O)N[C@@H](CCCNC(=N)N)C(=O)N[C@@H](CCCCN)C(=O)N[C@@H](CC(N)=O)C(=O)N[C@H](C(=O)N[C@@H](Cc1c[nH]cn1)C(=O)N[C@@H](Cc1c[nH]c2ccccc12)C(=O)N1CCC[C@H]1C(=O)N[C@@H](CCC(=O)O)C(=O)N[C@@H](CCC(=O)O)C(=O)NCC(=O)N[C@@H](CCCCN)C(=O)N[C@@H](CC(C)C)C(=O)N[C@@H](CCCNC(=N)N)C(=O)N[C@@H](CCC(=O)O)C(=O)N[C@@H](Cc1ccc(O)cc1)C(=O)N[C@@H](Cc1ccccc1)C(=O)N[C@@H](Cc1ccc(O)cc1)C(=O)N[C@@H](Cc1ccccc1)C(=O)N[C@@H](CCC(=O)O)C(=O)N[C@@H](CC(C)C)C(=O)N[C@@H](CC(=O)O)C(=O)N[C@@H](CCC(=O)O)C(=O)N[C@@H](C)C(=O)N[C@@H](CCC(=O)O)C(=O)N[C@@H](CCCNC(=N)N)C(=O)N[C@H](C(=O)N[C@@H](CC(N)=O)C(=O)N[C@H](C(=O)O)C(C)C)C(C)C)C(C)C  log2 fold change (HeLa and HEK-293T cells; phosphatase bead binding, competitive inhibitor, PIB pulldown iBAQ LC-MS/MS, item: PPP4R2; concentration not given; reference: untreated control): 0.14
COc1ccc(N2C(=O)N(c3c(C)cccc3Cl)Cc3cnc(Nc4ccc(C5CCN(C)CC5)cc4OC)nc32)nc1  inhibition (ATR (Homo sapiens, UniProt Q13535); kinase activity; 0.5 µM): -10%
C[C@@H](O)[C@@H](CO)NC(=O)[C@@H](CCCNC(=N)N)NC(=O)[C@@H]1CCCN1C(=O)[C@@H]1CSSC[C@H](NC(=O)[C@H](Cc2ccccc2)NC(=O)CN2CCN(CC(=O)O)CCN(CC(=O)O)CCN(CC(=O)O)CC2)C(=O)N[C@@H](Cc2ccc(O)cc2)C(=O)N[C@@H](Cc2ccccc2)C(=O)N[C@@H](CCC(N)=O)C(=O)N[C@@H](CC(N)=O)C(=O)N1 [gallium-68 labelled]  tissue uptake (healthy Wistar rat, muscle; intravenous, 8 MBq, 30 min, individual animals): 0.74 %ID/g
COc1cc2c(Oc3ccc4[nH]c(C)cc4c3F)ccnc2cc1OCC1(N)CC1  grade 3 Headache (paediatric recurrent refractory sarcoma; 8 mg): 0%
OC[C@H]1O[C@@H](n2ccc3c(SCc4ccc(Cl)cc4Cl)ncnc32)[C@H](O)[C@@H]1O  survival (Toxoplasma gondii; [3H]uracil incorporation; human fibroblasts, adenosine kinase deficient; 10 µM): 100%
CNC1(c2ccccc2Cl)CCCCC1=O (racemic)  inhibition (OPRM1 (Homo sapiens, UniProt P35372); radioligand binding, agonist, radioligand displacement; 30 µM): 69%
CC(=O)c1c(C)c2cnc(Nc3ccc(C4CCN(CCS(C)(=O)=O)CC4)cn3)nc2n(C2CCCC2)c1=O  t1/2 (human, plasma; oral, 100 mg twice daily, day 21, multiple doses): 8.08 h
OC[C@H]1O[C@@H](n2ccc3c(SCc4ccc(Cl)c(Cl)c4)ncnc32)[C@H](O)[C@@H]1O  survival (Toxoplasma gondii; [3H]uracil incorporation; human fibroblasts, adenosine kinase deficient; 5 µM): 100%
CC[C@H](C)[C@H](NC(=O)CNC(=O)[C@@H](N)CCCCN)C(=O)N[C@@H](CC(C)C)C(=O)N[C@@H](CCCCN)C(=O)N[C@@H](CCCNC(=N)N)C(=O)N[C@@H](CCC(=O)O)C(=O)N[C@@H](CCCCN)C(=O)N[C@@H](CCCNC(=N)N)C(=O)N[C@@H](CC(C)C)C(=O)N[C@@H](CCCNC(=N)N)C(=O)N[C@@H](CCCNC(=N)N)C(=O)N[C@@H](CCCCN)C(=O)N[C@@H](CC(N)=O)C(=O)N[C@H](C(=O)N[C@@H](Cc1c[nH]cn1)C(=O)N[C@@H](Cc1c[nH]c2ccccc12)C(=O)N1CCC[C@H]1C(=O)N[C@@H](CCC(=O)O)C(=O)N[C@@H](CCC(=O)O)C(=O)NCC(=O)N[C@@H](CCCCN)C(=O)N[C@@H](CC(C)C)C(=O)N[C@@H](CCCNC(=N)N)C(=O)N[C@@H](CCC(=O)O)C(=O)N[C@@H](Cc1ccccc1)C(=O)N[C@@H](Cc1ccccc1)C(=O)N[C@@H](Cc1ccccc1)C(=O)N[C@@H](Cc1ccccc1)C(=O)N[C@@H](CCC(=O)O)C(=O)N[C@@H](CC(C)C)C(=O)N[C@@H](CC(=O)O)C(=O)N[C@@H](CCC(=O)O)C(=O)N[C@@H](C)C(=O)N[C@@H](CCC(=O)O)C(=O)N[C@@H](CCCNC(=N)N)C(=O)N[C@H](C(=O)N[C@@H](CC(N)=O)C(=O)N[C@H](C(=O)O)C(C)C)C(C)C)C(C)C  log2 fold change (HeLa and HEK-293T cells; phosphatase bead binding, competitive inhibitor, PIB pulldown iBAQ LC-MS/MS, item: PPP4C; concentration not given; reference: untreated control): 0.58

Some of these lines once more:
CC(C)[C@@H]1NC(=O)[C@H](Cc2ccccc2)NC(=O)[C@@H]2NC(=O)[C@H](Cc3ccccc3)NC(=O)[C@@H]3CCCN3C(=O)CNC(=O)[C@H](Cc3ccccc3)NC(=O)[C@@H]3CNCCCC[C@@H](C(=O)O)NC(=O)[C@@H]4NC(=O)[C@H](CC(N)=O)NC(=O)CNC(=O)[C@H]([C@@H](O)C(=O)O)NC(=O)[C@H](CSC[C@@H](NC(=O)[C@H](CCC(N)=O)NC(=O)[C@H](CCCCNC(=O)c5ccc(NN)nc5)NC(=O)[C@@H](N)CS[C@H]4C)C(=O)N[C@@H](CS[C@H]2C)C(=O)N3)NC1=O [technetium-99m labelled]  tissue uptake (rat, saline control, stomach; intravenous, 2 h after tracer, tracer 24 h after reperfusion): 0.09 ± 0.03 %ID/g
CC(=O)c1c(C)c2cnc(Nc3ccc(C4CCN(CCS(C)(=O)=O)CC4)cn3)nc2n(C2CCCC2)c1=O  t1/2 (human, plasma; oral, 100 mg twice daily, day 21, multiple doses): 8.08 h
COc1cc2c(Oc3ccc4[nH]c(C)cc4c3F)ccnc2cc1OCC1(N)CC1  grade 3 Headache (paediatric recurrent refractory sarcoma; 8 mg): 0%
